Results pooled from the literature.
Numbered parts are unrelated; each lists some results of a single study.

Set 1 — technique: RNAcompete; molecule type: RNA; sample: in vitro; concentration: 20 nM; notes: 7-mer, probes averaged, single round; baseline: mean of 7-mers; direction: higher = stronger binding; endpoint: 7-mer Z-score
Target: PABPC1L2, full length, GST fusion (mouse, UniProt A0ABA7IW68)
Target sequence (chain): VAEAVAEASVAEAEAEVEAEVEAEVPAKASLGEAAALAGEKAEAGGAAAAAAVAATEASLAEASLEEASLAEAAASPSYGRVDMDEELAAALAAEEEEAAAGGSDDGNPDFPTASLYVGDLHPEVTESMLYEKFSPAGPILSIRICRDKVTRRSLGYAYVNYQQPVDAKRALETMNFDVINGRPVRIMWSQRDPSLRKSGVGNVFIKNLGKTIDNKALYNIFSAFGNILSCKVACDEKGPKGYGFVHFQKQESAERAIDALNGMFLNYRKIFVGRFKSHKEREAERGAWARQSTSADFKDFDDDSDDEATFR
Strand = AAACUGU; result = 1.04
Strand = CCCGAAA; result = 0.948
Strand = ACGCUGG; result = -0.146
Strand = UUGCCAG; result = -0.277
Strand = GGGCCUG; result = -0.0409

Set 2 — technique: RNA Bind-n-Seq; molecule type: RNA; sample: in vitro; concentration: 365 nM; baseline: no-protein control; direction: higher = stronger binding; endpoint: RBNS enrichment (R)
Target: RNA binding protein fox-1 homolog 2, RRM domain, GST-SBP tag (RBFOX2, Homo sapiens, UniProt O43251-10, residues 100-194)
Notes: natural RNA segment, single round, ends assumed
All sequences stand within: GGGAGUUCUACAGUCCGACGAUC … UGGAAUUCUCGGGUGCCAA
Target sequence (chain): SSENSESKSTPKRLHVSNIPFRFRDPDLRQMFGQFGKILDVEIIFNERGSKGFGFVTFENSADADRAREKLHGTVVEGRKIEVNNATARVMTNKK
Strand = UUGUUGACUCAGGGCAUAAUGAGUUCCUGAGACAUGCUCUUUUGGGGGCUGGGGCUUUAGCUAGAAGAAUUUCAAGGAAAAGAAUUCUCAGCAGAGCUCAAGAUUGUAGA; result = 0.45
Strand = GUCCUUGUUGGCUGAGGGCAGGACCUUGUAACCCUCUUCCAUGCACAACUUGCACACCCCCUGUUCCCUCACUGUGUGCCCAACCUCUUCCUUUUUCCUGGGAUUCUUUA; result = 1.46
Strand = AGAGGAAAAAAAAGCAACCUUCAAACUAAUUCUCCAUGGGGGCUCUCCAUGUUACCCUCCACUCCUUGGCCCAAACCUCUGAUGGAGAUAGACAUUGUUGGAGAAGUGGG; result = 0.752
Strand = GAAGAUAUAGCAGAAUCUACCCUUCCAGGAAGACAUACAGUUGAAAUGCUGGUCAUUUCCUUUGCAAAGGACAGUCUCUGAAUUAUACCUACAACCUGUUCUGGGACAGU; result = 0.21
Strand = GCCUUAGCAACUGCCCAGGUCCUGAGAAAUGGAGGGCUUGUUCAUGGGGUUAGAAACCUGCAAAGGCAGCCGGGCGUGGUGGCGCAUGCCUUUAAUCCCAGCACUCGGGA; result = 0.677

Set 3 — technique: protein binding microarray; molecule type: double-stranded DNA, one strand shown; sample: in vitro; concentration: not given; baseline: not given; direction: higher = stronger binding; endpoint: E-score
Target: Histone acetyltransferase KAT6A, winged helix 1, GST fusion (KAT6A, Homo sapiens, UniProt Q92794, residues 1-85)
Notes: 8-mer, flanks averaged, mean of 2 arrays, mostly near background
Residues (chain): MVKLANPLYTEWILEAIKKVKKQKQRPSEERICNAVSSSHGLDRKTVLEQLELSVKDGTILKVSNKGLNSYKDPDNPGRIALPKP
Strand = ACTGGTAA; result = -0.0848
Strand = AGGTGAAA; result = -0.159
Strand = GAGATTAA; result = -0.00204
Strand = CAAACGTG; result = -0.134
Strand = AATTCTTA; result = -0.0953

Single results of other studies
Molecule = PhoQ, residues 284 288 289 292 302 303 SMMNNA; target = PhoP, residues 12 14 15 18 19 SQCLL (Escherichia coli, UniProt P23836); assay = Sort-seq, refers to: YFP reporter; test system = E. coli; conditions = PhoQ-PhoP variant library, added: 10 µM Mg2+; how to read = baseline: high Mg2+ state, higher = stronger signaling; endpoint = fold induction; result = 16
